Values quoted from earlier work as cited in several papers.
Each numbered part shows a few of the values that one paper quotes. ± marks the error that the study gave.
UniProt P22756, sequence (whole entry, unmodified, looked up): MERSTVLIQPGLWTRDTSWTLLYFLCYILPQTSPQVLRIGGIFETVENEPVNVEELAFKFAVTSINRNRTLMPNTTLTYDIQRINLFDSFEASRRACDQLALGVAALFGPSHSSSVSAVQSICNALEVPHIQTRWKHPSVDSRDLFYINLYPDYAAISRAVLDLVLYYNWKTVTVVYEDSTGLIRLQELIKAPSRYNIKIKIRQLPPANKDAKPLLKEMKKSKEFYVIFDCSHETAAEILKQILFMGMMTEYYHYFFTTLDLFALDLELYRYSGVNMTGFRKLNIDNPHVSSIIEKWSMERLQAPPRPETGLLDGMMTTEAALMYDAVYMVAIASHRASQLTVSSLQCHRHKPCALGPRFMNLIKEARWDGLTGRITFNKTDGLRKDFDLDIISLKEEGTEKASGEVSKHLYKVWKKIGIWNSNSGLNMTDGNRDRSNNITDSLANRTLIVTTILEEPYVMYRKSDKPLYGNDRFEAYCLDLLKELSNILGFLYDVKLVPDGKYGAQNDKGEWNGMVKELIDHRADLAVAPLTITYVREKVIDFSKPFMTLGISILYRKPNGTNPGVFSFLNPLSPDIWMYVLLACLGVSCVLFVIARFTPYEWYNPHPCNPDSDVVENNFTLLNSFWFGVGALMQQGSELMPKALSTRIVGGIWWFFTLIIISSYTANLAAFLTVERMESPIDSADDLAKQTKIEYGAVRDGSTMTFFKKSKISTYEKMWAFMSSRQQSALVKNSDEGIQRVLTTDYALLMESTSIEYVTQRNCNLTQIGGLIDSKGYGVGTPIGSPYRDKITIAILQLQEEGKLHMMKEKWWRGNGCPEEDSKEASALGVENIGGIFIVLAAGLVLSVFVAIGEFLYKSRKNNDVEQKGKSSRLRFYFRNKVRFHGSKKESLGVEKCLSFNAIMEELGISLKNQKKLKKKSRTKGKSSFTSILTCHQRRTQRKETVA
UniProt C7C422, sequence (whole entry, looked up): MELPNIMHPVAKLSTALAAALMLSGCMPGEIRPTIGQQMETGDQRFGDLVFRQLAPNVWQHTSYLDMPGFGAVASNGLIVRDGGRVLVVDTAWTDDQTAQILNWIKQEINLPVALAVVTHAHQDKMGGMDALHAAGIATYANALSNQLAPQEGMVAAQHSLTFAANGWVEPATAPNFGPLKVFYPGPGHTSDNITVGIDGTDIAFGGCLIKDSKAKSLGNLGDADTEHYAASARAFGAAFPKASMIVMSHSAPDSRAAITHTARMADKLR

Block 1 — effect on: peptide-MHC binding; form: peptide
Target: HLA class I histocompatibility antigen, A alpha chain, allele A*26:03 (Homo sapiens, UniProt P04439)
With `EEIRRIWRQ` the IC50 was greater than 20000 nM.
`EINAFVAGM` gave an IC50 of 23 nM.
The IC50 of `ETPGSTDNY` is reported as 138 nM.
For `TESDAIRTL`, the IC50 was greater than 20000 nM.
For `VFFKQWFEK`, the IC50 was greater than 20000 nM.
`FVFEATKLY` has an IC50 of 203 nM.
For `PHPVVVRTL`, the IC50 was greater than 20000 nM.
`WLSVIAFGK` gave an IC50 of greater than 20000 nM.
For `LTFLDCLYY`, the IC50 was greater than 20000 nM.
The IC50 of `EELRSLYNTV` is reported as greater than 20000 nM.
`EIYRTLYGL` has an IC50 of 182 nM.
`MGKTITDVK` gave an IC50 of greater than 20000 nM.
With `HTIFDFLAY` the IC50 was 6 nM.
`AADFPGIAR` has an IC50 of greater than 20000 nM.
The IC50 of `TIHLATAPK` is reported as greater than 20000 nM.
`SHEQGDIAL` gave an IC50 of greater than 20000 nM.
`IYWLIFWRF` has an IC50 of greater than 20000 nM.
With `TVLEFILQK` the IC50 was greater than 20000 nM.
`IEVKFHPIL` has an IC50 of greater than 20000 nM.
The IC50 of `VMAASGAPF` is reported as greater than 20000 nM.
With `FQVNRFTGY` the IC50 was 454 nM.
The IC50 of `RFRCVGPAP` is reported as greater than 20000 nM.
For `TKDAERGKL`, the IC50 was greater than 20000 nM.
The IC50 of `KRSTPFYTK` is reported as greater than 20000 nM.
The IC50 of `EGIPGLYTY` is reported as greater than 20000 nM.

Mixed results
20S proteasome: 20S proteasome (Plasmodium falciparum, UniProt A0A5K1K7U1+Q8I261+Q8IJT1)
The Ki of `CCC1CCN(C(=O)C(CCCN=C(N)N)NS(=O)(=O)c2cccc3c(N(C)C)cccc23)CC1` (centres unmarked) is reported as 150 nM (thrombin).
`O=C(O)c1cc(-c2ccc([C@H]3C[C@H]4C[C@@H]3CN4)cc2)c2ccc(-c3ccc(C(F)(F)F)cc3)cc2c1` gave a logD of 1.9 ± 0.1 (pH 7.4).
`O=S(=O)(O)C(F)(F)C(F)(F)C(F)(F)C(F)(F)C(F)(F)C(F)(F)C(F)(F)C(F)(F)F` gave a half-life of 38 days (mice, female).
`COCC(=O)N1CCC[C@H](C(=O)NCc2nc(-c3ccccc3)cs2)C1` gave an IC50 of 130 nM (20S proteasome; enzyme activity, inhibitor; with: Suc-LLVY-AMC 20 µM).
With `NC(CC1(C(=O)O)CC2OC(CO)C(O)C(N)C2O1)C(=O)O` (centres unmarked) the seizure-inducing dose was 1.3 nmol/mouse (mouse; intracerebroventricular, preliminary).
`COCC(=O)N1CCC[C@H](C(=O)NCc2nc(-c3ccc(OC)cc3)cs2)C1` has an IC50 of 74 nM (20S proteasome; enzyme activity, inhibitor; with: Suc-LLVY-AMC 20 µM).
With `O=C(O)C(F)(F)C(F)(F)C(F)(F)C(F)(F)C(F)(F)C(F)(F)C(F)(F)F` the NOAEL was 1.88 mg/kg body weight (IgM production suppression; C57BL/6 mouse, adult).
With `CCCCN1CCC(COC(=O)c2ccc(N)c(OC)c2)CC1` [carbon-11 labelled] the Ki was 211 nM (SIGMAR1 (Homo sapiens, UniProt Q99720)).
`C=C(C)[C@@H]1CCC(C)=C[C@H]1c1c(O)cc(CCCCC)cc1O` gave a protective index of 9.4 (male rat; i.p., MES seizure test).
For `CC(C)(O/N=C(\C(=O)N[C@@H]1C(=O)N2C(C(=O)[O-])=C(C[N+]3(CCNC(=O)c4ccc(O)c(O)c4Cl)CCCC3)CS[C@H]12)c1csc(N)n1)C(=O)O`, the Km was 161 µM (blaNDM-1 (Klebsiella pneumoniae, UniProt C7C422); substrate).
`CCCCCCCCCCCCCC(=O)O[C@@H]1[C@@H](C)[C@@]2(O)[C@@H](C=C(CO)C[C@]3(O)C(=O)C(C)=C[C@@H]23)[C@@H]2C(C)(C)[C@]12OC(C)=O` gave a Ki of 0.59 nM (phorbol ester receptor; radioligand binding).
The bioconcentration factor of `C[Si]1(C)O[Si](C)(C)O[Si](C)(C)O[Si](C)(C)O[Si](C)(C)O1` is reported as 3500 L/kg wet weight (Oncorhynchus mykiss; concentration not given).
For `O=C(O)c1cc(-c2ccc(C3CCNCC3)cc2)c2ccc(-c3ccc(C(F)(F)F)cc3)cc2c1`, the logD was 1.9 (pH 7.4).
With `c1ccc2c(c1)OCC(C1=NCCN1)O2` (centres unmarked) the IC50 was 12 nM (imidazoline I2 receptor, brain; radioligand binding).
`CC1(C(=O)O)C2CCC(O2)C1(C)C(=O)O` (centres unmarked) has an IC50 of 53 nM (PP1 and PP2A; phosphatase activity, inhibitor).
`CN[C@H]1[C@H]2O[C@@](C[C@H](N)C(=O)O)(C(=O)O)C[C@H]2OC[C@H]1O` gave a Ki of 0.5 nM (Glutamate receptor ionotropic, kainate 1 (Rattus norvegicus, UniProt P22756, del402-416)).
`CCN(CC)C(=O)c1ccc([C@H](c2ccccc2)N2C[C@@H](C)N(Cc3cccc(F)c3)C[C@@H]2C)cc1` gave a Ki of 2 nM (rat delta opioid receptor; binding).
With `C=C[C@@H]1C[C@]1(NC(=O)[C@@H]1C[C@@H]2CN1C(=O)[C@H](C(C)(C)C)NC(=O)O[C@@H]1C[C@H]1CCCCCc1nc3ccc(OC)cc3nc1O2)C(=O)NS(=O)(=O)C1CC1` the IC50 was 73000 nM (human CYP3A4; reversible inhibitor; human liver microsomes; with: midazolam).
`C/C=C1/CN2CC[C@]34C(=C(C(=O)OC)[C@H]1C[C@H]23)Nc1ccccc14` has an IC50 of 240 nM (kappa opioid receptor; cAMP level).
`CC[C@@H](C(N)=O)N1CCCC1=O` gave a Ki change of 100 fold (SV2B G240C; concentration not given; relative to: wild-type SV2B).
For `N.N.[Cl][Pt][Cl]`, the IC50 was 91000 ± 7000 nM (MCF-10A).
`COC[C@@H](NC(C)=O)C(=O)NCc1ccccc1` has an ED50 of 3.1 mg/kg (rat, male, MES seizure model; intraperitoneal, at time of peak effect).
Under “maximum tolerated dose”, `CN1CC[C@@]2(C)c3cc(OC(=O)Nc4ccccc4)ccc3N(C)[C@@H]12` is recorded as 20 mg (human).
`C=C[C@@H]1C[C@]1(NC(=O)[C@@H]1C[C@@H]2CN1C(=O)[C@H](C(C)(C)C)NC(=O)O[C@@H]1C[C@H]1CCCCCc1nc3ccc(OC)cc3nc1O2)C(=O)NS(=O)(=O)C1CC1` has an IC50 of 73000 nM (human CYP3A4; inhibitor; with: midazolam substrate).
`Cc1cc(Nc2ncc(Cl)c(Nc3ccccc3S(=O)(=O)C(C)C)n2)c(OC(C)C)cc1C1CCNCC1` gave an MTD of 750 mg (cancer patients; oral, daily, fasted, single agent).

Some of these lines once more (block 1):
The IC50 of `RFRCVGPAP` is reported as greater than 20000 nM.
For `TKDAERGKL`, the IC50 was greater than 20000 nM.
The IC50 of `KRSTPFYTK` is reported as greater than 20000 nM.
The IC50 of `EGIPGLYTY` is reported as greater than 20000 nM.
